Measured values collected from several papers.
Protocols differ between the studies behind these lines. “And” joins repeats or separate records; there may be more than shown.

SMILES	tested on	test	system	setting	how to read	measurement	result
CCN(CC)CC(=O)Nc1cccc(-n2cc(-c3ccc4ccc(-c5cn(-c6cccc(NC(=O)CN(CC)CC)c6)nn5)cc4c3)nn2)c1	RCC4	PCR angiogenesis array, item: ITGAV	–	5 x IC50, 4 h, normoxia	reference: untreated	fold regulation	-1.32
Cc1ncsc1-c1ccc(C(C)NC(=O)C2CC(O)CN2C(=O)C(NC(=O)CCCCCCCCCCN2CCCC(Nc3ncc(Cl)c(Nc4ccccc4S(=O)(=O)C(C)C)n3)C2)C(C)(C)C)cc1 (stereo not shown)	22Rv1	RNA-seq, item: NLGN3 mRNA	–	concentration not given	reference: DMSO	log2 fold change	-2.24
CO[C@@H]1[C@@H](OC(N)=O)[C@@H](O)[C@H](Oc2ccc3c(O)c(NC(=O)c4ccc(O)c(CC=C(C)C)c4)c(=O)oc3c2C)OC1(C)C	DLD-1 BRCA2-/-	–	–	75 µM, replicate A	reference: untreated	colony survival	5.08%
O=C(c1ccc([C@H]2[C@@H](F)[C@@H](F)C[C@@H](F)[C@H]2F)cc1)N1CCCC1	–	hepatocyte stability	cryopreserved human hepatocytes	1 µM	–	hepatic clearance	14 mL/min/kg
COc1ccccc1-c1ccncc1C(=O)Nc1nnc(OCc2ccc(Cl)cc2)s1	DLD-1 parental	–	–	0.06 µM, single replicate	–	colony count	80 and 79 and 60 and 73 and 83
CN1CCCNC(=O)c2cccc(c2)C(=O)NCCCN(C)CCCNc2cccc3c2C(=O)c2cccc(c2C3=O)NCCC1	SAS	RNA-Seq, item: CYB561A3 mRNA	–	1 µM, 6 h	reference: untreated cells	log2 fold change	-0.81
O=C(c1ccc(C2CCCCC2)cc1)N1CCCC1	–	hepatocyte stability	cryopreserved rat hepatocytes	1 µM	–	hepatic clearance	46 mL/min/kg
O=S(=O)(N[C@H]1CCO[C@@H](C2c3ccc(F)cc3CCc3cc(F)ccc32)C1)c1ccc(OC(F)(F)F)cc1	D341	immunoblot, item: CIP2A	–	concentration not given	–	protein level	decreased
Cn1ncc2cc(-c3cncc(Cl)c3N3CCC4(CCNC4=O)CC3)ccc21	LS174T	gene expression, microarray, item: PCK1 mRNA	–	concentration not given, 4 h	reference: untreated cells	log2 fold change	1.63
CNS(=O)(=O)Nc1nccc(Cc2c(C)c3ccc(Oc4ncccc4F)cc3oc2=O)c1F	EFO-27	cell viability	–	7 days	–	IC50	> 1000 nM
